Published values from different studies.
Several values in a cell are separate wells, animals, samples, runs or records. Numbers after ± are the reported error.
DDR2: Discoidin domain-containing receptor 2 (DDR2, Homo sapiens, UniProt Q16832)
Sequence of UniProt Q16832 (whole entry, looked up): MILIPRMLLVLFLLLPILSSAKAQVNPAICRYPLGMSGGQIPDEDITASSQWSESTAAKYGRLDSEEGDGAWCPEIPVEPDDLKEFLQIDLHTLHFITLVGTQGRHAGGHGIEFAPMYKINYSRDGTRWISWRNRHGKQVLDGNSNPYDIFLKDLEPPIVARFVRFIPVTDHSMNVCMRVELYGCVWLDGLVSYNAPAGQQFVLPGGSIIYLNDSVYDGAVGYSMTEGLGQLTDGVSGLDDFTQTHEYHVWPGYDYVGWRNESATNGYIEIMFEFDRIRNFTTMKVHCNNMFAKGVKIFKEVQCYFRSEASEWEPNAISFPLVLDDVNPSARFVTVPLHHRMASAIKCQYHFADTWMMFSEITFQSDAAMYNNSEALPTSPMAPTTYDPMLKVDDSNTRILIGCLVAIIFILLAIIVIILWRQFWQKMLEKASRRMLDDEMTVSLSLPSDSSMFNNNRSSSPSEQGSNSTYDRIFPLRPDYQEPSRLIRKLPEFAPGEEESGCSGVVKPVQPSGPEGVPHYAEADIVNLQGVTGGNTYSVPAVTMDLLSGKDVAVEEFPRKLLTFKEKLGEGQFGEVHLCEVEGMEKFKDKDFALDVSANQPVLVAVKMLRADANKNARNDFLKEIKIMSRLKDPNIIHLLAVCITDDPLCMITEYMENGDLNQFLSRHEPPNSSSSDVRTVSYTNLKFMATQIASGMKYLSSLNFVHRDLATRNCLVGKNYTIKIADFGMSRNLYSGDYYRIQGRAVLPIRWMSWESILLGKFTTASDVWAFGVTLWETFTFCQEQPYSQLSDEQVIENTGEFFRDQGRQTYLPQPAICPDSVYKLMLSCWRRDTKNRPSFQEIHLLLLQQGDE
Sequence of UniProt Q92626 (whole entry, looked up): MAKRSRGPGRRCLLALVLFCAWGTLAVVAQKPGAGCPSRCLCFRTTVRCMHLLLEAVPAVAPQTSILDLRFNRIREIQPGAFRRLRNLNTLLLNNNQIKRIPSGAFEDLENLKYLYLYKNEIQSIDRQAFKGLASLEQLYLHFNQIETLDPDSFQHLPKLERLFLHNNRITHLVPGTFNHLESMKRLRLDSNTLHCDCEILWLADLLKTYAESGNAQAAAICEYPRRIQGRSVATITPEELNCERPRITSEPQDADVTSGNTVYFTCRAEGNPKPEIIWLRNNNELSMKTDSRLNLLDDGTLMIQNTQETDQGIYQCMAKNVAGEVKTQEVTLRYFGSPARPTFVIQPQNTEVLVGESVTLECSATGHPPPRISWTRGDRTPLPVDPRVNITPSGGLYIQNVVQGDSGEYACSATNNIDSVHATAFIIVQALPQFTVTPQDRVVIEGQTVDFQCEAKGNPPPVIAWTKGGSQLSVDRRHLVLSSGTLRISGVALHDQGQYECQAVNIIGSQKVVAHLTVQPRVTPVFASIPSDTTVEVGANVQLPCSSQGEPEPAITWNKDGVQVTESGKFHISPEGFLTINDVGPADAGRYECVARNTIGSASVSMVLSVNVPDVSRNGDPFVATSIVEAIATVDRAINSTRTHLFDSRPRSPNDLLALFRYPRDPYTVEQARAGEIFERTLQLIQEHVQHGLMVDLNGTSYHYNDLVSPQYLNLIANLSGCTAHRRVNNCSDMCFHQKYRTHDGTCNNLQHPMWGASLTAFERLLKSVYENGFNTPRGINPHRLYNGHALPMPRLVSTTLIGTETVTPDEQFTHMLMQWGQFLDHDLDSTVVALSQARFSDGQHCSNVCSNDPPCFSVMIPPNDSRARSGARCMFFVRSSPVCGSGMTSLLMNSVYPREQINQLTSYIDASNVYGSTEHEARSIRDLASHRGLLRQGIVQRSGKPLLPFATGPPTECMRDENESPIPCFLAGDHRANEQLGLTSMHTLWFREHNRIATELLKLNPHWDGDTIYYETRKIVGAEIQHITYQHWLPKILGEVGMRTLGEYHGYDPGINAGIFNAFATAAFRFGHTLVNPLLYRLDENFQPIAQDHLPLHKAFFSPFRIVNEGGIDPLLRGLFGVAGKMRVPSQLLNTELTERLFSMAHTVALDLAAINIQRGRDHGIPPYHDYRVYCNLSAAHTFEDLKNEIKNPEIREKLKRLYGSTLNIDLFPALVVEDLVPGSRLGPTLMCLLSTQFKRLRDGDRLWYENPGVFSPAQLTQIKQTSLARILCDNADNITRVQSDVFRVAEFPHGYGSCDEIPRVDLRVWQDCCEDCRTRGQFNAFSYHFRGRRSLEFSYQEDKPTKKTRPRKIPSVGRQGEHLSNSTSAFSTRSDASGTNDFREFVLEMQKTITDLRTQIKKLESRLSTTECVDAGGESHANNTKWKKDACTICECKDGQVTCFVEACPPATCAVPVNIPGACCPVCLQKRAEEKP
Sequence of UniProt Q05513 (whole entry, looked up): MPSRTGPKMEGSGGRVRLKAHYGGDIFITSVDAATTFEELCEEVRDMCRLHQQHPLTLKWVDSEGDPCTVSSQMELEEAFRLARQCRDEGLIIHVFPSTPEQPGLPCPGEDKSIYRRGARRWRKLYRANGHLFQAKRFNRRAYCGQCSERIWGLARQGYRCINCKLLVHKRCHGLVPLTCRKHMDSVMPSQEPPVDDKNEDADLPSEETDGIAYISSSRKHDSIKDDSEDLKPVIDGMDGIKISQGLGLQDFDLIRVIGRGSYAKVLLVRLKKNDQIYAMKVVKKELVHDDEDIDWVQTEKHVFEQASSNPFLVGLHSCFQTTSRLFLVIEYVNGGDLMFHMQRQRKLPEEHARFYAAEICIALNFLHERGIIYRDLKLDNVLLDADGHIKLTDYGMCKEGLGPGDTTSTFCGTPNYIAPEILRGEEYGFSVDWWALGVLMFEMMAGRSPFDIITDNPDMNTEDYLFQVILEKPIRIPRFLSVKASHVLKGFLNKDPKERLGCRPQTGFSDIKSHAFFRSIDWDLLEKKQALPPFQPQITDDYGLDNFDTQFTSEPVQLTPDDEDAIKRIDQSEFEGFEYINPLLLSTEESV
Sequence of UniProt P33424 (whole entry, looked up): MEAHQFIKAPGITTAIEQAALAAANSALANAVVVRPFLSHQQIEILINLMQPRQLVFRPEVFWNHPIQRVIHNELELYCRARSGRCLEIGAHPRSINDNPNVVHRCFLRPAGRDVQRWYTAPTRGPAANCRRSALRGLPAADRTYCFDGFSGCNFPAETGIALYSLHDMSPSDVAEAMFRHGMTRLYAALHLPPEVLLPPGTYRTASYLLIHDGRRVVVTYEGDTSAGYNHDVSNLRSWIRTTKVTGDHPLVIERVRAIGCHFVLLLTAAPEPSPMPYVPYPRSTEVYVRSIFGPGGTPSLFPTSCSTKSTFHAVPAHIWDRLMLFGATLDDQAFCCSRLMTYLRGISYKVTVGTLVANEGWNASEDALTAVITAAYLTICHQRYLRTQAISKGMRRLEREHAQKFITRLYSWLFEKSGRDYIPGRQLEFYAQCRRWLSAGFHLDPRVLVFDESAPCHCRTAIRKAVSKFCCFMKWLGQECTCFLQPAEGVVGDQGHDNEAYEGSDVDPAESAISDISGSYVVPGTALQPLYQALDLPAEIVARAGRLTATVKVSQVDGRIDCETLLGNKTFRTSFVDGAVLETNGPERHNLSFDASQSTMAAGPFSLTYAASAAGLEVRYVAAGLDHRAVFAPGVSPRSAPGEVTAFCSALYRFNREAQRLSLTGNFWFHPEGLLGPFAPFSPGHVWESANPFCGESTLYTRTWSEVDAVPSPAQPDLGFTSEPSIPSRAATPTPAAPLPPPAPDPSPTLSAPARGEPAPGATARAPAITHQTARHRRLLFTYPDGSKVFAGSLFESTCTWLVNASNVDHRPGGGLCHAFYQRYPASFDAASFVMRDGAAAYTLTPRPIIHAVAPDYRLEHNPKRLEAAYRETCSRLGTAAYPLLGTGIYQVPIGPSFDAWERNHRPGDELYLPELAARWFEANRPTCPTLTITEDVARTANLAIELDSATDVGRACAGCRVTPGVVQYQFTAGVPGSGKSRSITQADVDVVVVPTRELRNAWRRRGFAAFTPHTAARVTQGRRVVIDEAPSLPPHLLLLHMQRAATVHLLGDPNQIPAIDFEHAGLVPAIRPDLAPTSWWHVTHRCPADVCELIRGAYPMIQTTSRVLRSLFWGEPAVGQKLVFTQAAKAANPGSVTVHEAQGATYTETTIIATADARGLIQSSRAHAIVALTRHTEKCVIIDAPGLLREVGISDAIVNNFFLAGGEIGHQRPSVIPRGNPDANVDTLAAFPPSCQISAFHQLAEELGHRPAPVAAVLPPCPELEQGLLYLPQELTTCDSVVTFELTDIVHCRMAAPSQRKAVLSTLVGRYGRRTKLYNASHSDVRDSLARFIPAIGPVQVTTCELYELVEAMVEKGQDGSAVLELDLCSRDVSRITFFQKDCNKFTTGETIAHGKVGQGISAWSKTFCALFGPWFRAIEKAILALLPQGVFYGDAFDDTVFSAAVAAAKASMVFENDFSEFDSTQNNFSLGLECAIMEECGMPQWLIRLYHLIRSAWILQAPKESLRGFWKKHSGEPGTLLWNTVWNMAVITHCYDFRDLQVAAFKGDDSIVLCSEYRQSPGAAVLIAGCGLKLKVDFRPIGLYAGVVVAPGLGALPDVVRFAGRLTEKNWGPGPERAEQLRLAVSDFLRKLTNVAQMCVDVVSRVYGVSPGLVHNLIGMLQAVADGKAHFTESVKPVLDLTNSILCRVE
Sequence of UniProt P49935 (whole entry, looked up): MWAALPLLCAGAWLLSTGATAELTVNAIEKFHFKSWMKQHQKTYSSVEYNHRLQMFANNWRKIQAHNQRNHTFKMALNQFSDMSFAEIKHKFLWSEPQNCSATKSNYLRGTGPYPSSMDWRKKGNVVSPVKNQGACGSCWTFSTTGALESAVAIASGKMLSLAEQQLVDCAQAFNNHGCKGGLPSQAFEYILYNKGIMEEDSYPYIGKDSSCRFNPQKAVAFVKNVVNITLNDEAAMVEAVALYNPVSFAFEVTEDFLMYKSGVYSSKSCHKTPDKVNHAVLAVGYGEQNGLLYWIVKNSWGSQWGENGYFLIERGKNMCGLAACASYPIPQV

| Structure (SMILES) | tested on | test | test system | setting | how to read | measurement | value |
| --- | --- | --- | --- | --- | --- | --- | --- |
| Cc1cccc(C)c1C(=O)OCC(=O)[C@H](CCCCN)NC(=O)[C@H](CCCNC(=N)N)NC(=O)OCc1ccccc1 | Pro-cathepsin H (Ctsh, Mus musculus, UniProt P49935) | inhibitor | – | 0.1 µM, room temperature, added: AMC substrate | – | remaining activity | 92% |
| CC(=O)ON=C1C=CC(=C(C#N)c2ccccc2)C=C1 | Glycogen synthase kinase 3 (Plasmodium falciparum, UniProt O77344) | enzyme activity, inhibitor, ADP-Glo | – | 2 µM, about MIC/10, added: ATP 10 µM | – | remaining activity | 83% |
| CCCCCCCCCCCCCCNC(=O)/C=C/c1ccc(O)c(O)c1 | AMY2 (Sus scrofa, UniProt P00690) | enzyme activity | – | 20 µM, added: α-glucosidase present | – | remaining activity | 56.2 ± 3.67% |
| CCCCCC/C(C)=N/Nc1ccc([N+](=O)[O-])cc1[N+](=O)[O-] | fdhA (Pseudomonas putida, UniProt P46154) | – | – | concentration not given, no demethylase | – | remaining activity | > 80% |
| COc1ccc(F)cc1C(=O)NCc1ccc(-c2nn([C@@H](C)C(F)(F)F)c(N)c2C(N)=O)cc1 | MAP3K20 (Homo sapiens, UniProt Q9NYL2) | kinase activity, inhibitor, HotSpot radiometric | – | 100 nM, added: ATP 10 µM | – | remaining activity | 93.3 ± 0.5% |
| C=CC(=O)N1CCC[C@@H](n2nc(-c3ccc(Oc4ccccc4)cc3)c3c(N)ncnc32)C1 | TESK2 (Homo sapiens, UniProt Q96S53) | – | – | 0.1 µM | – | remaining activity | 85.8% |
| CCCCCCCCCCOc1cc2c(O)c(C(=O)OCC)cnc2cc1OCC | human iPSC-derived cardiomyocytes | MyBP-C/MYH ratio, plate-normalised SD score | – | concentration not given, primary screen | direction not given | activity score | 3.5 |
| Cn1cc(-c2ccc(-c3cncc(Cl)c3N3CCC4(CCNC4=O)CC3)cc2)cn1 | COLO 205 | gene expression, microarray, item: UCHL1 mRNA | – | concentration not given, 6 h | baseline: untreated cells | log2 fold change | 2.15 |
| NC/C(=C\F)COc1cccc(Cn2c(=S)[nH]c(=O)c3[nH]cnc32)c1 | Peroxidasin homolog (PXDN, Homo sapiens, UniProt Q92626) | enzyme activity, inhibitor, Amplex UltraRed | – | 30 µM | baseline: control | remaining activity | 14.5% and 14.9% |
| O=C(NC1CCC1)c1ccc2nc(-c3cccc(NS(=O)(=O)NCCN4CCCCC4)c3)cn2c1 | DDR2 | enzyme activity | – | 10 µM | – | remaining activity | 100% |
| OC[C@H]1O[C@@H](O[C@H]2[C@H](O)[C@@H](O)C(O)O[C@@H]2CO)[C@H](O)[C@@H](O)[C@@H]1O (stereo partly drawn) | uncharacterized protein (Paenibacillus xylanivorans, UniProt A0A0N0C5Q2) | enzyme activity, product inhibitor | – | 250000 µM, pH 4.5, 40 °C | – | remaining activity | ~50% |
| O=C(O)CCn1sc2ccccc2c1=O | Ubiquitin carboxyl-terminal hydrolase 5, ZnF-UBD domain (USP5, Homo sapiens, UniProt P45974) | – | – | – | – | Kd | > 1000 µM |
| c1cnc2ccc(Nc3nc(NC4CC4)c4nc[nH]c4n3)cc2c1 | ACVR1B (Homo sapiens, UniProt P36896) | kinase activity, inhibitor, SelectScreen kinase profiling | – | 1 µM | baseline: control | remaining activity | 98% |
| CC(C)C[C@H](NC(=O)C[C@H](O)[C@H](CC(C)C)NC(=O)[C@H](Cc1c[nH]cn1)NC(=O)CNC(=O)[C@@H](NC(=O)[C@H](C)NC(=O)[C@H](Cc1c[nH]c2ccccc12)NC(=O)[C@H](CCC(N)=O)NC(=O)[C@@H](Cc1ccccc1)NC(=O)COCCOCCNC(=O)CCC(C(=O)O)N1CCN(CC(=O)O)CCN(CC(=O)O)CCN(CC(=O)O)CC1)C(C)C)C(N)=O (stereo partly drawn) [lutetium-177 labelled] | – | – | BALB/c nu/nu mice, blood | intravenous, 500 pmol, 1 h, added: PA 300 µg | – | tissue uptake | 0.35 ± 0.04 %ID/g |
| CCN1/C(=C/C(C)=O)Sc2ccc(F)cc21 | – | – | cynomolgus monkey | oral, 30 mg/kg, 0.5 h post-dose | – | QRS duration | 35 ± 2 ms |
| CC(C)OCCn1c(=S)[nH]c(=O)c2[nH]ccc21 | Myeloperoxidase (MPO, Homo sapiens, UniProt P05164) | chlorination activity | – | 1.25 µM, 0.1 h, added: iodide, TMB | – | remaining activity | 28.8% |
| COc1cc(N2CCN(C)CC2)ccc1Nc1nc(N)n(C(=S)NCc2c(Cl)cccc2Cl)n1 | PRPF4B (Homo sapiens, UniProt Q13523) | enzyme activity | – | 10 µM | baseline: control | remaining activity | 0% |
| Cc1cc(Nc2cc(N3CCN(C)CC3)nc(Sc3ccc(NC(=O)C4CC4)cc3)n2)[nH]n1 | PRKCZ (Homo sapiens, UniProt Q05513) | kinase activity, KinaseProfiler | – | 0.03 µM, species human | baseline: control | remaining activity | 93% |
| CC(C)(Oc1ccc(Cl)cc1)C(=O)O | human iPSC-derived cardiomyocytes | MyBP-C/MYH ratio, plate-normalised SD score | – | concentration not given, primary screen | direction not given | activity score | 3.3 |
| O=C(O)c1ccc(Nc2ncc3c(n2)-c2ccc(Cl)cc2C(c2c(F)cccc2F)=NC3)cc1 | human DAPK2(h) | kinase activity | – | 1 µM | – | remaining activity | 103% |
| O=C1NC(=O)/C(=C/c2ccc(-c3ccc(F)cc3O)o2)S1 | MAPKAPK5 (Homo sapiens, UniProt Q8IW41) | enzyme activity | – | 10 µM | – | remaining activity | 64% |
| COc1cc(Nc2ncc3c(n2)-c2ccc(Cl)cc2C(c2c(F)cccc2OC)=NC3)ccc1C(=O)O | PKC beta I | inhibitor, biochemical kinase | – | 1 µM | – | remaining activity | 105% |
| NC(=O)c1ncn([C@@H]2O[C@H](CO[P@@](=O)(O)O[P@](=O)(O)OP(=O)(O)O)[C@@H](O)[C@H]2O)n1 | Non-structural polyprotein pORF1, helicase domain (Hepatitis E virus genotype 1, UniProt P33424) | ATPase activity, inhibitor, colorimetric | – | 14 µM | baseline: untreated | remaining activity | 87.5% |
| CNc1ncc2c(/C=C/C(=O)N3CCC(OC)CC3)nn(Cc3cccc(C(F)(F)F)c3)c2n1 | Protein kinase C zeta type, PKMzeta isoform (PRKCZ, Homo sapiens, UniProt Q05513) | kinase activity, inhibitor | – | 1 µM | baseline: untreated control | remaining activity | 96% |
| COc1cc(F)ccc1-c1ncnc(Nc2cccc(C[S@](C)(=N)=O)c2)n1 | DDR2 | kinase activity | – | 10 µM, added: 10 µM ATP | – | remaining activity | 90% |
| COc1cc(-c2cncc3c2CN(C)Cc2cc(N4CCNCC4)ccc2-3)cc(OC)c1OC | PRKCI (Homo sapiens, UniProt P41743) | kinase activity | – | 1 µM, human enzyme, added: ATP 10 µM | baseline: DMSO control | remaining activity | 105% |
| C[C@@H](Oc1ccc(S(C)(=O)=O)cc1C(=O)N1C[C@@H]2C[C@]2(c2cc(C(F)(F)F)on2)C1)C(F)(F)F | SLC6A9 (Homo sapiens, UniProt P48067, L476T) | glycine uptake, inhibitor, [3H]glycine uptake | – | 0.003 µM, L422T mutant, log concentration 3, added: [3H]glycine | baseline: no inhibitor | remaining activity | 75.5% |

Repeated from above:
| Structure (SMILES) | tested on | test | test system | setting | how to read | measurement | value |
| --- | --- | --- | --- | --- | --- | --- | --- |
| CCCCCC/C(C)=N/Nc1ccc([N+](=O)[O-])cc1[N+](=O)[O-] | fdhA (Pseudomonas putida, UniProt P46154) | – | – | concentration not given, no demethylase | – | remaining activity | > 80% |
| COc1ccc(F)cc1C(=O)NCc1ccc(-c2nn([C@@H](C)C(F)(F)F)c(N)c2C(N)=O)cc1 | MAP3K20 (Homo sapiens, UniProt Q9NYL2) | kinase activity, inhibitor, HotSpot radiometric | – | 100 nM, added: ATP 10 µM | – | remaining activity | 93.3 ± 0.5% |
| C=CC(=O)N1CCC[C@@H](n2nc(-c3ccc(Oc4ccccc4)cc3)c3c(N)ncnc32)C1 | TESK2 (Homo sapiens, UniProt Q96S53) | – | – | 0.1 µM | – | remaining activity | 85.8% |
| CCCCCCCCCCOc1cc2c(O)c(C(=O)OCC)cnc2cc1OCC | human iPSC-derived cardiomyocytes | MyBP-C/MYH ratio, plate-normalised SD score | – | concentration not given, primary screen | direction not given | activity score | 3.5 |
